Measured values from different studies.
Every numbered part comes from another study and shows a few of its results, in no order. Substitutions count along the parent as printed.

Study 1 — method: EMSA with sequencing; form: double-stranded DNA, one strand shown; matrix: in vitro; tested at: 10 and 20 nM; baseline: negative control set to 0; reading: higher = stronger binding
Target: Hepatocyte nuclear factor 3-alpha (Foxa1, Mus musculus, UniProt P35582, residues 1-468, full length assumed)
Setting: whole designed probe, mean of two concentrations, ends assumed
Constant ends, left off below: GTGAGCGGTGCCCATTGATGGGGAAC … TTTCACTGGGATCGTGGGGAC
Residues (chain): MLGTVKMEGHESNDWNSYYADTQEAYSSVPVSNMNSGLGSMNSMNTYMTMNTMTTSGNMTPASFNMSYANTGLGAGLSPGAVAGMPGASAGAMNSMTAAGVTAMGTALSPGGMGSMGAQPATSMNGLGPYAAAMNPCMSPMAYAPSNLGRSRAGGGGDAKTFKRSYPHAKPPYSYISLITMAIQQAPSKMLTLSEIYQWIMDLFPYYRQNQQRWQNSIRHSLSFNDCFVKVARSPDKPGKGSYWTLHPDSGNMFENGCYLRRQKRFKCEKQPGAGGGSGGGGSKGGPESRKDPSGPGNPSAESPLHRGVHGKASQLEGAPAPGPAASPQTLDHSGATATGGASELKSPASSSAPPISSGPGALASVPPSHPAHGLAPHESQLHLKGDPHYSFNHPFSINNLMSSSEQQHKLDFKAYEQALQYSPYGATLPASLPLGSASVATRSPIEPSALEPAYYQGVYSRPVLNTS
Sequence	normalised bound fraction [ratio]
GAAATAAAATGCGATCACTTTTCACAATGATTCTTGGAGAAACCACATAATGGCTAAAGCAGCCTAAAATTACTTGGGATAGGTTAAATAAAGTAAACATGGCTTATTAGATTTCCATAGAGTTAATAGTCTACATAGTCTAATGTTTTATAGACAAAACCTCTGTCATTCTGTTTTATAGAGTAACTCCTAC	0.395
ATATAGAAAGAGAAAAATTTTAGAAGGCTATGCATCAAAATATTGAGATTGGTTTGCTCTAGATTATAGCAGTCTTGCTTATCTTTTTTGCATGTTTACATTTTCAAAATTTTTCGTAATAAAAAATTGTTTCACTTTAAACACAGCTGAAAAGAGAATCTTTTGGCGTAAAGGAGGAGTATTTTAGGGGCTA	0.258
CTCATTCCTTGCTTCCGCCAATAATCTGACTAGTAAAGAAGTCACTGCATGCCACAAATTGTCAGTGCTGACTTCCTCAACAAGGAAGTTATTTATTTACTTATGAGTGACTCAGTTAATATATATGCAAATTCCATCTTGAGAATACCAACTCCTGATGCCAACTGATTGTCAGTCATGGCTACAACAGGAG	0.491
ATAGTGGTGAGCTTCTCTATGTTGTGTCTACATGGCTATGATGACAAGTGGAGTTATACGCCTGTGCTCTATACTCACTGAGTCACGAAGAATGTAATCTTCCTACCTCGGCCTATCCTTGACCAAAGCACAGCCATGTTCCTTACACTCTGGGTCCCCACGGTTCAGACAGAAGTCTCTCTGACAGACAACA	0.0623
CAAGTTTGTGGTCCAGGAGCAACAGGTTATGCCATACAGCCTAGGTGTGTAGTAGGCTACACACCGCCATGACTCATGTTGTACACTCTACAATGTTTGCACAATGATGAAATCCCATGTCACATTTCTCAGAACATACCCCTGTTGTTAAGCGATACATGACTGTACTTTTTTTAAAAAGTCCAAGGATATA	0.447

Study 2 — target: CCNB1, cyclin fold, Cln2 fusion (human); method: yeast growth competition, sequencing; matrix: yeast; setting: strong parent motif; baseline: not given; reading: higher = stronger binding
Starting sequence: viral docking peptide; KGVKRKLFAEDSS; partner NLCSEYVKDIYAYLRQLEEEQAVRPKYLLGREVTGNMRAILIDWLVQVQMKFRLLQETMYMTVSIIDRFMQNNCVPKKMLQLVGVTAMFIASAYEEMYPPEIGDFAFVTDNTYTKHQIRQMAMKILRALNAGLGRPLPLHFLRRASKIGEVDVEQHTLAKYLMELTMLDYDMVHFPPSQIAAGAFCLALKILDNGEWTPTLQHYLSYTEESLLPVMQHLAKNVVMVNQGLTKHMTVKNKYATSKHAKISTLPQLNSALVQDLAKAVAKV
Substitution	normalised enrichment score
R5C	1.7
D11T	1.21
V3M	-0.373
K4F	0.793
R5S	-0.0321
D11G	1.6

Study 3 — target: UBE2A UBC core domain (UniProt P49459); method: yeast two-hybrid; matrix: yeast; setting: mostly zero background; baseline: not given; reading: higher = stronger interaction
Chain of UniProt P49459 (whole entry, looked up): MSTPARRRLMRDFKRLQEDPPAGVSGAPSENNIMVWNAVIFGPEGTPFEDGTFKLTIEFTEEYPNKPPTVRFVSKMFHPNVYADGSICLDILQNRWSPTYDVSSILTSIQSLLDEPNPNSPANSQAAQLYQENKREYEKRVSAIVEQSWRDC
B1: RNF121 RING domain (UniProt Q9H920); chain MPTKHLSDSVCAVCGQQIFVDVSEEGIIENTYRLSCNHVFHEFCIRGWCIVGKKQTCPYCKEKVDLKRMFS
B2: SH3RF1 RING domain (UniProt Q7Z6J0); chain DESALLDLLECPVCLERLDASAKVLPCQHTFCKRCLLGIVGSRNELRCPECRTLVGSGVEEL
B3: ZMIZ2 RING domain (UniProt Q8NF64); chain GTIPGTPGPNGEDGVEQTAIKVSLKCPITFRRIQLPARGHDCRHIQCFDLESYLQLNCERGTWRCPVCNKTALLEGLEVDQYMLGILIYIQNSDYEEITIDPTCSWK
B4: RNF19A RING domain (UniProt Q9NV58); chain ISKQIGDFIECPLCLLRHSKDRFPDIMTCHHRSCVDCLRQYLRIEISESRVNISCPECTERFNPHDIR
B5: SYTL4 RING domain (UniProt Q96C24); chain RGSQHYSDRTCARCQESLGRLSPKTNTCRGCNHLVCRDCRIQESNGTWRCKVCAKEIELKKAT
B6: TRIM62 RING domain (UniProt Q9BVG3); chain MACSLKDELLCSICLSIYQDPVSLGCEHYFCRRCITEHWVRQEAQGARDCPECRRTFAEPALAP
B7: RNF133 RING domain (UniProt Q8WVZ7); chain DEEINPNGDSCVICFERYKPNDIVRILTCKHFFHKNCIDPWILPHGTCPICKCDILKVLGIQ
Sequence	lacZ reporter activity
B1 (RNF121 RING domain)	0
B2 (SH3RF1 RING domain)	0
B3 (ZMIZ2 RING domain)	0
KLRKLKEAMLCMVCCEEEINSTFCPCGHTVCCESCAAQLQSCPVCRSRVEHVQHVY (MYLIP RING domain (UniProt Q8WY64))	0
B4 (RNF19A RING domain)	0
NLSELTPYILCSICKGYLIDATTITECLHTFCKSCIVRHFYYSNRCPKCNIVVHQTQPLY (PCGF6 RING domain (UniProt Q9BYE7))	0
AVPSGLEENLCKICMDSPIDCVLLECGHMVTCTKCGKRMNECPICRQYVIRAVHVF (RFFL RING domain (UniProt Q8WZ73))	0
B5 (SYTL4 RING domain)	0
B6 (TRIM62 RING domain)	0
KETIKKTTKPCPRCHVPVEKNGGCMHMKCPQPQCRLEWCWNCGCEWNRVCMG (PRKN RING domain (UniProt O60260))	0
B7 (RNF133 RING domain)	9610
YQNEVDDDLVCHICLQPLLQPLDTPCGHTFCYKCLRNFLQEKDFCPLDRKRLHFKLCKK (LNX2 RING domain (UniProt Q8N448))	0

Study 4 — effect on: peptide-MHC binding; form: peptide; tested at: concentration not given
Target: HLA class I histocompatibility antigen, A alpha chain, allele A*80:01 (Homo sapiens, UniProt P04439)
Sequence	binding
NTDAFSREY	inactive
LTMNLVSDI	inactive
AKIALAVYK	inactive
RLDKPLWLH	inactive
AVDADDSHF	inactive
FTGEYLLRL	inactive

For quick reference, copied from above (study 3):
Sequence	lacZ reporter activity
B3 (ZMIZ2 RING domain)	0
KLRKLKEAMLCMVCCEEEINSTFCPCGHTVCCESCAAQLQSCPVCRSRVEHVQHVY (MYLIP RING domain (UniProt Q8WY64))	0
B4 (RNF19A RING domain)	0
NLSELTPYILCSICKGYLIDATTITECLHTFCKSCIVRHFYYSNRCPKCNIVVHQTQPLY (PCGF6 RING domain (UniProt Q9BYE7))	0
